Results collected from several papers.
Compare with care: the assays were run in different laboratories. ± gives the spread as reported.
DRD2: D(2) dopamine receptor (DRD2, Homo sapiens, UniProt P14416)
Sequence of UniProt P14416 (whole entry, unmodified, looked up): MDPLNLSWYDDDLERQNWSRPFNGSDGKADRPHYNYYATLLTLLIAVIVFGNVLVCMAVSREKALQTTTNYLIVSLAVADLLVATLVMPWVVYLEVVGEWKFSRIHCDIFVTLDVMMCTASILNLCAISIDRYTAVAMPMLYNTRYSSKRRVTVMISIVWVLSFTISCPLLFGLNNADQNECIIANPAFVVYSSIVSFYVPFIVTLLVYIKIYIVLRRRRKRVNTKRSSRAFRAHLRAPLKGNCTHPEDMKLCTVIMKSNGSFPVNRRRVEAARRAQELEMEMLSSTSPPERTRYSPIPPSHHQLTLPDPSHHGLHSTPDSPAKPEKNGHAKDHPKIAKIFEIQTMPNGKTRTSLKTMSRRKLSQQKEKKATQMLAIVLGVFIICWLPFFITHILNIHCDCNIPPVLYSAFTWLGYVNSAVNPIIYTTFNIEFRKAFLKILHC
DRD2 F110L/V111M: D(2) dopamine receptor (DRD2, Homo sapiens, UniProt P14416, F110L/V111M)

COc1cc(C(=O)N2CC[C@@H](O)[C@@H](N)C2)cc2nc(-c3cc4ccccc4n3CC3CC3)n(C)c12 — IC50 (DRD2; antagonist, GTPγS LEADseeker): 25.1 µM
CC(C)Oc1cccnc1N(C)C1CCN(Cc2ccc(I)cc2)CC1 — Ki (DRD2 F110L/V111M; binding; COS-7 membranes; mutant receptor, with: [3H]methylspiperone 0.5 nM): 0.0038 ± 0.00073 µM
Cc1[nH]c(C)c(S(=O)(=O)Nc2ccc(S(=O)(=O)F)c(F)c2)c1C(=O)N1CCC(F)(F)C1 — IC50 (DRD2): > 100 µM
Clc1ccc(N2CCN(Cc3c[nH]c4ncccc34)CC2)cc1 — Ki (DRD2 F110L/V111M; binding): 0.117 ± 0.095 µM
C[C@H](N)Cn1ncc2ccc3c(c21)CCCO3 — IC50 (DRD2; radioligand binding; with: [3H]spiperone): > 100 µM
Cc1[nH]c(C)c(S(=O)(=O)F)c1C(=O)N1CCC(F)(F)C1 — IC50 (DRD2): > 100 µM
OC(c1ccc(F)cc1)C(F)(F)CCN1CCC(O)(c2ccc(Cl)cc2)CC1 (racemic) — Ki (DRD2): 5.47 ± 0.403 µM
NCCc1cccc(O)c1 — EC50 (DRD2): 0.1 µM
COc1ncccc1-c1cnn2ccc(N3CCN(C(=O)OC(C)C)CC3)nc12 — IC50 (DRD2; liability screen): > 30 µM
COC(=O)c1ccc(NS(=O)(=O)c2c(C)[nH]c(C)c2C(=O)N2CCC(F)(F)C2)cc1Cl — IC50 (DRD2): > 100 µM

Repeated from above:
OC(c1ccc(F)cc1)C(F)(F)CCN1CCC(O)(c2ccc(Cl)cc2)CC1 (racemic) — Ki (DRD2): 5.47 ± 0.403 µM
